# Results from different studies.
# Every numbered part comes from another study and shows a few of its results, in no order.

# Set 1
# Target: RNA binding protein fox-1 homolog 2, RRM domain, GST-SBP tag (RBFOX2, Homo sapiens, UniProt O43251-10, residues 100-194)
# Technique: RNA Bind-n-Seq
# Form: RNA
# Medium: in vitro
# Tested at: 365 nM
# Setting: natural RNA segment, single round, ends assumed
# Reference: no-protein control
# Direction: higher = stronger binding
# Constant ends, left off below: GGGAGUUCUACAGUCCGACGAUC … UGGAAUUCUCGGGUGCCAA
# Residues (chain): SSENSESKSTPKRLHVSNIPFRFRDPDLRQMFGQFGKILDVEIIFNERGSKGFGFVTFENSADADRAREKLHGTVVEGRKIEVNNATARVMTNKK
Sequence,RBNS enrichment (R)
CCAAGGCCUGACCUAGGCUGCUAUCCUAAUAUUGCAGGAGGGGCCUCUCUUCCAAGCCCCACCCUAAGGGUUAGCCCUUGGCCAAAUCUUUUGCCGUCUAGGCCCAGCCA,0.268
GCUUCAGGAACUUAAUGCCACUCAGUUCAACAUCACAGGUGAAAUCAUGUCUCAGUUCCCAUCUAGCAAGGUGGCUUCAGGAGAGCAGAAGGAGGACCAGUCUGAAGAUA,0.383
CCCAGCCCCCCUUCCCAUUUGUUUCUCCUUCUCUAAUCCCAGGGACUAUGGUAGAGACUUGCUGCUCCUAACUCCCCAGUUACCCACCCUCCUCUGCCCUUUCUCGGGAU,0.757
GUGGACAGCUUUUCCGUGGAAAUUCAAGGCAUCUGUAUUAGGCAAAUGUGAGUGCCCUUGAUCUUGUAUUGAUCAGUGCCAAUGUACUGGGAAAGCAGGUACCCCAGUGA,1.15
CUGCCUUGAGAGGCCGCGGACAAAGAGCUUCUAAAACCAAGAGUCUCAGCGCUUGAGGAGUGCUGCCUGAUUCUUCUGCAAGCCCCACUGGGAGCCACCACCUCCGGCUC,0.626
CAGCCCCACAUCCACAUUCUGUUAGAAUGUAGCUCAGGGAGCUUCGUGGACGGCCUUGCUUGCUGUAGCGUUGUAGGGGCCCUGCCUGCACUGCGGUUGUCCACGGUCAC,0.49
AAUGUUACUGCCAGUCAUAAGUGGCUUUUUAAUUACCAGUUUUCAUUGCACUUCACUCUGUUUUCAGGGGGAUUGGGGACAUUCGGGGAGACUGUAUCUGUCUACUUUGU,0.365
GCUGGGGGAGGGAGGAGUCCACGCAUCCUGAUGCUGCCUGGAAGCUUAUUUUCCCGUGGCCAGGACGCAUUUCUCUGAGUGGAAACAGGUUCUUGCAUGUGGAUGUGUGU,7.19
AAGUGAUUGGUUUAUAUCAGAUUCAGAGGAGCCCAAUUAACUCCAGUGUAGGUAAUGUAAAACAGUAAGCUCAAAUUGCAGAAGCCAGUAUCCUACAGAAAUUUAAGUAG,0.524
GACGAAGGCUCUGCUGGUCCUCCUGUGCUGGGAAUCUCUUUGAUGGCCUCUUGUGAAGCUCAUGAAACUUUAACAAGUGUUUGACCUUACAGCUUCCUCUGGGAGGUCGU,0.35
GCCCUAGGCGUGGCCUGCGGUCUGGCAGAUCCGUGCUACAGAAUUCGCCUGGUUCCUCUCUAUUUUAAUUUUUCUAACCUAGAGCUUAAUUUCAAUAACUUUUUCAACAG,1.26
CGCAUGGUGUCCUACAGCAGCAGUUUCUGUCUUUGUAAUUCCUUGUUGACCACAUACAGCAGGCAGCUUCACGUCCUCCCGCUAACAUCUGCUGCCUUAGACCUGGGUGG,0.982

# Set 2
# Target: Histone acetyltransferase KAT6A, both winged helices, GST fusion (KAT6A, Homo sapiens, UniProt Q92794, residues 1-181)
# Technique: protein binding microarray
# Form: double-stranded DNA, one strand shown
# Medium: in vitro
# Tested at: not given
# Setting: 8-mer, flanks averaged, mean of 2 arrays, mostly near background
# Reference: not given
# Direction: higher = stronger binding
# Residues (chain): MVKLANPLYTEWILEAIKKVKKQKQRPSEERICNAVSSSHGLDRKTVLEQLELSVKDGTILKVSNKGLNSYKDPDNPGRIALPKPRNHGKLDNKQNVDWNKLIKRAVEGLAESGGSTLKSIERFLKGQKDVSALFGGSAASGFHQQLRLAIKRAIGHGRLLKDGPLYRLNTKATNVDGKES
Sequence,E-score
CTCGGCGA,0.309
GCCTAGAA,-0.0697
ATCTAGCA,-0.153
ATTAGACG,0.0999
CTGTACCA,-0.201
GACTAATC,0.0609
ACCGTGGA,0.13
GGAAATGA,-0.0869
CTAGCGGA,0.192
ACTTGTAG,-0.0607
CCGTTAGA,0.208
GAAGGAAA,0.0533
AACATGGA,0.0159
CGAGAGCG,0.176
GCTAAAGA,0.0204
GCTTAACA,0.115
GTGGTTAA,-0.0403
AAAGCTTA,-0.058
CCCGCTGA,0.152
ATAGCGAT,0.0265
AAATCACA,-0.064
AAGCGTTC,0.0131
GTTTATAA,0.102
GACTTTTA,-0.0376

# Set 3
# Target: Sal-like protein 4, full length isoform B (SALL4, Homo sapiens, UniProt Q9UJQ4-2, residues 1-616)
# Technique: universal PBM
# Form: double-stranded DNA, one strand shown
# Medium: in vitro
# Tested at: not given
# Setting: 8-mer, flanks averaged, mean of replicates
# Direction: higher = stronger binding
Sequence,E-score
CCTGAACA,-0.0195
GCTTGTTA,0.0541
ACTCTAAA,0.149
AGTCTGTG,-0.0638
ACAATCAC,0.074
AGTGCACG,-0.171
CAGGATCA,-0.175
GATAATCC,-0.0158
AGATAAGG,0.00112
ATCACTCA,0.159
AGTAAAAT,0.266
GGCGGACA,-0.228
ACCTAGAT,-0.0657
AAGCAATG,0.0346
GAAAGCGC,-0.162
AGGTTTCA,-0.0243
CGAACATC,-0.00358
AGGATATC,0.0633
ACCTACAG,-0.0726
CCCGGAAA,-0.263
TCCCGGCA,-0.308

# Set 4
# Target: Centromere-binding protein 1, full length, N-terminal tag (CBF1, Saccharomyces cerevisiae, UniProt P17106, residues 1-351)
# Chain of UniProt P17106 (whole entry, looked up): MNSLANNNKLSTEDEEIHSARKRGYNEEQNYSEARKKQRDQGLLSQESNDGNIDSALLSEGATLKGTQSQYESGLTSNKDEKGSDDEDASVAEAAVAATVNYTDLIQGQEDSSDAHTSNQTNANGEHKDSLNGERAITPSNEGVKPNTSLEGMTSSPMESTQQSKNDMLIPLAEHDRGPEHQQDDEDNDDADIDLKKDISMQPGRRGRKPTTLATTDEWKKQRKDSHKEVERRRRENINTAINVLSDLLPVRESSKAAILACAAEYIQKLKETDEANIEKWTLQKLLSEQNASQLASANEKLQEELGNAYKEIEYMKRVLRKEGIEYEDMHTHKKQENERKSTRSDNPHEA
# Technique: protein-binding microarray
# Form: double-stranded DNA, one strand shown
# Medium: in vitro
# Tested at: 0.8 µM
# Setting: whole 60-bp probe, no competitor
# Direction: higher = stronger binding
# Constant ends, left off below: … GTCTTGATTCGCTTGACGCTGCTG
Sequence,fluorescence intensity
TGTACGAAGCTATATCCACGCACTATAGTAGTTAGG,520 a.u.
GAACAAGAAATGATCAACTGAATAAAATAACGATAG,556 a.u.
GAATCTAACCATGATACCGTGACACAACTACATTAG,1100 a.u.
CTATATTCACAATGTGACACCAGATAGCTTGGTTTC,667 a.u.
CTAGACAATGGAACAAATGTGTCACCAAGGTTGTTC,500 a.u.
CTACTGCGTTAGCGTCACCTAGAAATCCCACTTTTC,561 a.u.
GAAAGTACCGGCGGTCACATGGTCTGCGAGATTTAG,6120 a.u.
CCTAACTACTATAATCACCAGTAATAGCTTCGTACA,510 a.u.
CTAAAAGAAGAAATAGATTGCTTTGCGTGAAATTTC,523 a.u.
CTATTTTCTTATATACAGGAGATGGGTGGCCACTTC,534 a.u.
CTATTGAGAACCAGTCATCAGACTAATGAAAGCTTC,566 a.u.
TGTACGAAGCTATACGTCATCAGTATAGTAGTTAGG,1590 a.u.
CTATTGATGCTCGCCAACGTGAGATAGCTGGTCTTC,517 a.u.
GAAGAGTTTGCCGGTGGTGCGAACAATAGAGCGTAG,507 a.u.
TGTACGAAGCTATCCAACATGATTATAGTAGTTAGG,524 a.u.
GAATATCTCCATTGTACCGTGATTAAATAAAAATAG,1010 a.u.
CTAGTTATTCTGTGTGTCATGACTCTCACTTCGTTC,576 a.u.
CTAATTCAAGGCCACCACGTAGCCTTATACACCTTC,497 a.u.
CTAATACAAAACGGCCACGAGTTTCAATCCCAGTTC,563 a.u.
GAATAAGTTTTCTGTCAGCTGACTGTCCACCAATAG,5060 a.u.
CTAACCCTAAACCATCAGCGGCTATTATTAACATTC,495 a.u.
GAAAGGCAAGGCTGCGGCATCATGTCTACTTGTTAG,497 a.u.

# Set 5
# Target: Fragile X messenger ribonucleoprotein 1, C-terminal low-complexity region (Fmr1, Mus musculus, UniProt P35922)
# Technique: RNA Bind-n-Seq
# Form: RNA
# Medium: in vitro
# Tested at: 200 nM
# Setting: whole 134-nt RNA, ends assumed
# With: 150 mM LiCl
# Reference: input library
# Direction: higher = stronger binding
# Library: 7-deaza-guanosine replaces G
# Constant ends, left off below: GGGAGUUCUACAGUCCGACGAUC … UGGAAUUCUCGGGUGUCAAGG
Sequence,log2 enrichment
UGGCCCUCGUGGCAUGCGGGGAGGAAGAGGUGGCCUCAUGGAUCGUGGUGGUCCCGGUGGAAUGUUCAGAGGUGGCCGUGGUGGAGACAG,-0.524
CCUGUGCUACACAUCGUAUGUACCGAAUCGGGGAAAAAGGGGAAAGGGGUUUUUUUGGGGAAAGUAUUAUGUUACGCCGUUCGGAUCUGC,0.543
CCUGUGCUACACAUCGUAUGUACCGAAUCGGGGUUUUUGGGGAAAGGGGAAAAAAAGGGGAAAGUAUUAUGUUACGCCGUUCGGAUCUGC,-0.0104
GCAGGAAGUAAAAACAAAUGGAAAUGCUUCGGAUAGUGGCAGGGGUGGGGGUUGCUAACGAAAGGGUGGGAUGGGAGUGGGUAAAGAGUU,1.22
UGGGAGGUGGAUUUUGUUUAUUUUUUUAGCUCAUUUCCAGGGGUGGGAAUUUUUUUUUAAUAUGUGUCAUGAAUAAAGAUGUUUUUGAAA,-0.359
UCAAGUCCUGUGCUACACAUCGUAUGUACCGAAUCGGUUUGGGGUUUGGUUUGGAAAGUAUUAUGUUACGCCGUUCGGAUCUGCACUUCC,-0.924
GUCCUGUGCUACACAUCGUAUGUACCGAAUCGGGAAAAAGGGAAAAAAAGGGUUUGGGAAAGUAUUAUGUUACGCCGUUCGGAUCUGCAC,-2.4
UGGCCCUUCCCCUGGAGCCAUGCUGGGCCCUAGCCCGGGUCCCUCGCCGGGCUCCGCCCACAGCAUGAUGGGGCCCAGCCCAGGGCCGCC,0.667
GUCCUGUGCUACACAUCGUAUGUACCGAAUCGGGGCCCCGGGCCCCGGGGCCCCGGGGAAAGUAUUAUGUUACGCCGUUCGGAUCUGCAC,-0.543
UAACUUUAGAGGAGGAUCUGAUGGAUUUGGCAGUGGACGUGGAUUUGGGGAUGGCUAUAAUGGGUAUGGAGGAGGACCUGGAGGUGGCAA,0.0716
CACAGACAACACGCACCCACACAGACACAGAGGGAAGGGGUUUGGAUGGGGACAGGGUGCACAGCAGGGCGGGGUAGGACCCCAGCCCCU,-1.14

# For quick reference, copied from above (set 5):
Sequence,log2 enrichment
UGGGAGGUGGAUUUUGUUUAUUUUUUUAGCUCAUUUCCAGGGGUGGGAAUUUUUUUUUAAUAUGUGUCAUGAAUAAAGAUGUUUUUGAAA,-0.359
GUCCUGUGCUACACAUCGUAUGUACCGAAUCGGGAAAAAGGGAAAAAAAGGGUUUGGGAAAGUAUUAUGUUACGCCGUUCGGAUCUGCAC,-2.4
GUCCUGUGCUACACAUCGUAUGUACCGAAUCGGGGCCCCGGGCCCCGGGGCCCCGGGGAAAGUAUUAUGUUACGCCGUUCGGAUCUGCAC,-0.543
UGGCCCUCGUGGCAUGCGGGGAGGAAGAGGUGGCCUCAUGGAUCGUGGUGGUCCCGGUGGAAUGUUCAGAGGUGGCCGUGGUGGAGACAG,-0.524
CACAGACAACACGCACCCACACAGACACAGAGGGAAGGGGUUUGGAUGGGGACAGGGUGCACAGCAGGGCGGGGUAGGACCCCAGCCCCU,-1.14
CCUGUGCUACACAUCGUAUGUACCGAAUCGGGGUUUUUGGGGAAAGGGGAAAAAAAGGGGAAAGUAUUAUGUUACGCCGUUCGGAUCUGC,-0.0104
GCAGGAAGUAAAAACAAAUGGAAAUGCUUCGGAUAGUGGCAGGGGUGGGGGUUGCUAACGAAAGGGUGGGAUGGGAGUGGGUAAAGAGUU,1.22
UGGCCCUUCCCCUGGAGCCAUGCUGGGCCCUAGCCCGGGUCCCUCGCCGGGCUCCGCCCACAGCAUGAUGGGGCCCAGCCCAGGGCCGCC,0.667
UAACUUUAGAGGAGGAUCUGAUGGAUUUGGCAGUGGACGUGGAUUUGGGGAUGGCUAUAAUGGGUAUGGAGGAGGACCUGGAGGUGGCAA,0.0716
CCUGUGCUACACAUCGUAUGUACCGAAUCGGGGAAAAAGGGGAAAGGGGUUUUUUUGGGGAAAGUAUUAUGUUACGCCGUUCGGAUCUGC,0.543
UCAAGUCCUGUGCUACACAUCGUAUGUACCGAAUCGGUUUGGGGUUUGGUUUGGAAAGUAUUAUGUUACGCCGUUCGGAUCUGCACUUCC,-0.924
